Experimental data collected from several papers.
Compare with care: the assays were run in different laboratories. Numbers after ± are the reported error.
T1: RNA aptamer; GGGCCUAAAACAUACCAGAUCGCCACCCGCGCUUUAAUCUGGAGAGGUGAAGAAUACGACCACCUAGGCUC
T2: RNA aptamer; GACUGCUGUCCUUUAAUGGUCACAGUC
UniProt P51577, sequence (whole entry, unmodified, looked up): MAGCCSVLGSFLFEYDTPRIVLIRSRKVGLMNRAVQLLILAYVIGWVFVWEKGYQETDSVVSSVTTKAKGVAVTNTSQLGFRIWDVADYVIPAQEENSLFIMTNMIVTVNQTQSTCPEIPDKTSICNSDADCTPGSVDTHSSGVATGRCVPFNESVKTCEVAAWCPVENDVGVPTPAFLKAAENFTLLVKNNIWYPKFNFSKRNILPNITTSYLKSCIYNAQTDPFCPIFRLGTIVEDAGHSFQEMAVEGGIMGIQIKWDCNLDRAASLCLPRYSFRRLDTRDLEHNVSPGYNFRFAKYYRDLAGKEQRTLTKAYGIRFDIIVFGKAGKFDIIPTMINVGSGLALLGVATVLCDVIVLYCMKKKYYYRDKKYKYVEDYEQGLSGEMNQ
UniProt P23141, sequence (whole entry, looked up): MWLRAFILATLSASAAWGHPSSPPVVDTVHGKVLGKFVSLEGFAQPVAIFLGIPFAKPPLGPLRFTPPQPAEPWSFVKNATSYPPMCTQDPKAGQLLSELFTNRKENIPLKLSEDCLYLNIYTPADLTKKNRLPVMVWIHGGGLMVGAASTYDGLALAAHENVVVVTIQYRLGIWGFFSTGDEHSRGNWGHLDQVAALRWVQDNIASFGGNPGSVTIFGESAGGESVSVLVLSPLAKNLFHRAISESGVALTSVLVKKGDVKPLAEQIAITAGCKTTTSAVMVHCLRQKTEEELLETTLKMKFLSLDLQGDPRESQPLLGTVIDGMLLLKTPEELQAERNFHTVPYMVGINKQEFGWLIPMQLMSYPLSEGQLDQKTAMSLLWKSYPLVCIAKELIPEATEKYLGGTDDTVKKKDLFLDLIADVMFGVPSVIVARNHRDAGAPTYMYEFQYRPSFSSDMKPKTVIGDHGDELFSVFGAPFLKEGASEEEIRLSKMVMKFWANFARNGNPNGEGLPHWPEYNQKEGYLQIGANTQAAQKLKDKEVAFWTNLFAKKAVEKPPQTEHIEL
UniProt P43657, sequence (whole entry, looked up): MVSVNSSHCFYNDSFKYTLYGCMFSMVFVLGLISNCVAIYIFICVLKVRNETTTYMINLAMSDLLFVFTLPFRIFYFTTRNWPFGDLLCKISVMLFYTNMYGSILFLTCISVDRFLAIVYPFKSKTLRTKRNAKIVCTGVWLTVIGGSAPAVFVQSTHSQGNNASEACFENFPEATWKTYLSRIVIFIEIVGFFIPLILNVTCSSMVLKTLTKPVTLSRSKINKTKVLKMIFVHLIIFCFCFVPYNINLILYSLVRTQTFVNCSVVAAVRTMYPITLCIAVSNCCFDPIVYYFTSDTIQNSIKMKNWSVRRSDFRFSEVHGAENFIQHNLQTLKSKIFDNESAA
UniProt Q16539, sequence (whole entry, looked up): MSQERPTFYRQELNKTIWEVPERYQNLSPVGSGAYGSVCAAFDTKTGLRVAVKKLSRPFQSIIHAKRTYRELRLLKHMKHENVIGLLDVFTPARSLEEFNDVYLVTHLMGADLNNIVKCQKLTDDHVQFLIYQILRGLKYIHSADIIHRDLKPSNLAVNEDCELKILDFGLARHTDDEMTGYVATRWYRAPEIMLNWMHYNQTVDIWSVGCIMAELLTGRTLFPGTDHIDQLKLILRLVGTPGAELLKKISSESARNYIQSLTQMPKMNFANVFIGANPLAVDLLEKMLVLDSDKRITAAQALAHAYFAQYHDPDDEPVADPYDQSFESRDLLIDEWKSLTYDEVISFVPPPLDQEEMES
UniProt P14616, sequence (whole entry, looked up): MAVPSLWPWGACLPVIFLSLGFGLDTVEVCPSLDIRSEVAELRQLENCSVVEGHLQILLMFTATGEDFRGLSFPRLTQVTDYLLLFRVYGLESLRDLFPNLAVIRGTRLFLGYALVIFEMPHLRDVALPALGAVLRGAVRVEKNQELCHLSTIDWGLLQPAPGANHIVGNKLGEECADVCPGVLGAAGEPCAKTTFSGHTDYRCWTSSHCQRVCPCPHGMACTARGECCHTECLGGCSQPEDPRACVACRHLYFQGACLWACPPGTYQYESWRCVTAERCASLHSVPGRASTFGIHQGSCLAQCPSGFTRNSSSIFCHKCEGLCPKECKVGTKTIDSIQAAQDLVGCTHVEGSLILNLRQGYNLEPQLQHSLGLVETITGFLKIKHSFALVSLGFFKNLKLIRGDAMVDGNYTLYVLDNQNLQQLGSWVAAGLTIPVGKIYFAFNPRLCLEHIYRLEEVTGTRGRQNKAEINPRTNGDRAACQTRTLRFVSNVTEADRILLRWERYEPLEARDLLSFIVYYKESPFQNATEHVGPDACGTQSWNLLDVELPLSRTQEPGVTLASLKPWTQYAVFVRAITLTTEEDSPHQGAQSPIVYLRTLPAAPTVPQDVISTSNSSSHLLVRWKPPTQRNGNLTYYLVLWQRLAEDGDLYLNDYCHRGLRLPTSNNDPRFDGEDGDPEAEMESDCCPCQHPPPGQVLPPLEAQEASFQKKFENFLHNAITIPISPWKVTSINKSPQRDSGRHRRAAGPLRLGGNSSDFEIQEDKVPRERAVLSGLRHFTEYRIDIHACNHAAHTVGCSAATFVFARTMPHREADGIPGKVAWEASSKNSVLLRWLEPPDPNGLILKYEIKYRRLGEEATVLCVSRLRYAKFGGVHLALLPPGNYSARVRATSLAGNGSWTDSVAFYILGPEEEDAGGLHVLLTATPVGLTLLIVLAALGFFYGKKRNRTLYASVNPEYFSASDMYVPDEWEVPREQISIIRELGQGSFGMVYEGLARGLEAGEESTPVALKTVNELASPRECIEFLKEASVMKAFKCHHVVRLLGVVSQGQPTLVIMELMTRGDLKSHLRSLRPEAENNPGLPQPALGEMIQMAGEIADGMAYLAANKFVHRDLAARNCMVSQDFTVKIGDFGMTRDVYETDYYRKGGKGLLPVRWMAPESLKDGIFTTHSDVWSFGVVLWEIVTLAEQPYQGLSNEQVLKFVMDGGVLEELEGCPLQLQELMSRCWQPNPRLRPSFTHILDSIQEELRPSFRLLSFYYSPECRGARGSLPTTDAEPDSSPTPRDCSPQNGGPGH
UniProt Q9Y243, sequence (whole entry, looked up): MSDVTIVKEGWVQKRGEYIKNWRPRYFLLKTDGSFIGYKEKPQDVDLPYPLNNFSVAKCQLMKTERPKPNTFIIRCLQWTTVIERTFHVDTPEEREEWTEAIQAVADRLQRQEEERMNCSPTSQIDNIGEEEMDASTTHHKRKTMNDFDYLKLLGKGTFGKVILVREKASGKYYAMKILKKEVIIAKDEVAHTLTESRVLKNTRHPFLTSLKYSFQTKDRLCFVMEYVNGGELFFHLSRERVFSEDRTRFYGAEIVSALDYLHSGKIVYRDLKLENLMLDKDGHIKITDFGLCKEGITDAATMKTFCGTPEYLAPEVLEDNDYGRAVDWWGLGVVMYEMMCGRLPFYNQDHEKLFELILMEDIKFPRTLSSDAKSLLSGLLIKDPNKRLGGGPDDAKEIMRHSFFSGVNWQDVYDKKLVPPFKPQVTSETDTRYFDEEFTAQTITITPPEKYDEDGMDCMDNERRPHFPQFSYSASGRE
UniProt Q03431, sequence (whole entry, looked up): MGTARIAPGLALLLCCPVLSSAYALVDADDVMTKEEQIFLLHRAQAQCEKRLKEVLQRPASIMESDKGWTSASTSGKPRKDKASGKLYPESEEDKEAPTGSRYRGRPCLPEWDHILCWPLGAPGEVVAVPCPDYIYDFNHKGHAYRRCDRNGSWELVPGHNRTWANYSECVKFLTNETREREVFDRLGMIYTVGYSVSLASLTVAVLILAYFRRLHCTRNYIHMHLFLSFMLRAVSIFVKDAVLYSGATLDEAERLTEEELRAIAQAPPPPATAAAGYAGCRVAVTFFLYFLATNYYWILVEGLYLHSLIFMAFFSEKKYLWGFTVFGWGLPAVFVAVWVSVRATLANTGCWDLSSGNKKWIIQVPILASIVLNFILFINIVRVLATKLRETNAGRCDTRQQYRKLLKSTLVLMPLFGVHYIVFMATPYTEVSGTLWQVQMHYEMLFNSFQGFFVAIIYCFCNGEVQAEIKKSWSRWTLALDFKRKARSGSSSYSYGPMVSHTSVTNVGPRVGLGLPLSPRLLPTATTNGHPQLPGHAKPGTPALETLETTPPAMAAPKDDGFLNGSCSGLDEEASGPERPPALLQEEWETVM

CC(=O)NCCN(CC(=O)NCCN(CC(=O)NCCN(CC(=O)NCCC(N)=O)C(=O)C[C@@H](N)CCCCN)C(=O)C[C@@H](N)Cc1ccccc1)C(=O)C[C@@H](N)Cc1ccccc1 — non-electrostatic TΔS° (HIV-1 TAR RNA): 0.167 ± 0.311 kcal/mol
CC[C@H](C)[C@H](NC(=O)[C@H](CCC(=O)O)NC(=O)[C@@H](N)CO)C(=O)N[C@@H](CCC(N)=O)C(=O)N[C@@H](CC(C)C)C(=O)N[C@@H](CCSC)C(=O)N[C@@H](Cc1c[nH]cn1)C(=O)N[C@@H](CC(N)=O)C(=O)N[C@@H](CC(C)C)C(=O)NCC(=O)N[C@@H](CCCCN)C(=O)N[C@@H](Cc1c[nH]cn1)C(=O)N[C@@H](CC(C)C)C(=O)N[C@@H](CC(N)=O)C(=O)N[C@@H](CO)C(=O)N[C@@H](CCSC)C(=O)N[C@@H](CCC(=O)O)C(=O)N[C@@H](CCCNC(=N)N)C(=O)N[C@H](C(=O)N[C@@H](CCC(=O)O)C(=O)N[C@@H](Cc1c[nH]c2ccccc12)C(=O)N[C@@H](CC(C)C)C(=O)N[C@@H](CCCNC(=N)N)C(=O)N[C@@H](CCCCN)C(=O)N[C@@H](CCCCN)C(=O)N[C@@H](CC(C)C)C(=O)N[C@@H](CCC(N)=O)C(=O)N[C@@H](CC(=O)O)C(=O)N[C@H](C(=O)N[C@@H](Cc1c[nH]cn1)C(=O)N[C@@H](CC(N)=O)C(=O)N[C@@H](Cc1ccccc1)C(=O)N[C@@H](CCCCNC(=O)c1ccc2c(c1)C1(OC2=O)c2ccc(N(C)C)cc2Oc2cc(N(C)C)ccc21)C(N)=O)C(C)C)C(C)C — koff (Parathyroid hormone/parathyroid hormone-related peptide receptor (PTH1R, Homo sapiens, UniProt Q03431); binding, NanoBRET; HEK293): 0.0094 ± 0.003 s⁻¹
CC(C)CCC[C@@H](C)[C@H]1CC[C@H]2[C@@H]3CC=C4C[C@@H](OS(=O)(=O)O)CC[C@]4(C)[C@H]3CC[C@]12C — Vmax (Prothrombin (F2, Homo sapiens, UniProt P00734); Spectrozyme TH hydrolysis; 17 µM, pH 7.4, 25 °C): 31.3 ± 1.8 mAU/min
CN(C)C1C(O)=C(C#N)C(=O)C2(O)C(O)=C3C(=O)c4c(O)cccc4C(C)(O)C3CC12 (stereo not drawn) — Kd (T1, RNA aptamer; fluorescence titration; pH 7.5, 25 °C, MgCl2 10 mM): 9.8 nM
CCCCCCCCC(=O)Nc1ccc(OC)nc1C — specific activity ratio (Liver carboxylesterase 1 (CES1, Homo sapiens, UniProt P23141); enzyme activity, substrate; relative to: CES1 over human CES2): 11
CC(=O)NCCN(CC(=O)NCCN(CC(=O)NCCN(CC(=O)NCCC(N)=O)C(=O)C[C@@H](N)Cc1ccccc1)C(=O)C[C@@H](N)CCCNC(=N)N)C(=O)C[C@@H](N)CCCNC(=N)N — non-electrostatic TΔS° (HIV-1 TAR RNA): -1.82 ± 0.55 kcal/mol
NC(=O)C1CCNC(=O)C(Cc2ccc([N+](=O)[O-])cc2)NC(=O)C(Cc2ccco2)NC(=O)C(CC2CC2)NC(=O)C=CC(=O)N1 (stereo not drawn) — enrichment factor (RAC-gamma serine/threonine-protein kinase (AKT3, Homo sapiens, UniProt Q9Y243); DNA-templated library selection; one selection round): 1.5
O=C1NCCN=C1CC(=O)c1ccccc1 — ligand efficiency (Mitogen-activated protein kinase 14 (MAPK14, Homo sapiens, UniProt Q16539); enzyme activity): 0.22
COc1cc(C(=O)NC2CCC(N3CCN(CC4CCC5(CCCC5)C4)CC3)CC2)c(F)cc1Nc1ncc2c(n1)N(C1CCCC1(F)F)CC(F)(F)C(=O)N2C (stereo not drawn) — inhibition (Insulin receptor-related protein (INSRR, Homo sapiens, UniProt P14616); cell-free assay, TR-FRET; 10 µM): 0.34%
NC[C@@H]1O[C@H](O[C@H]2[C@@H](O)[C@H](O[C@@H]3[C@@H](O)[C@H](N)C[C@H](N)[C@H]3O[C@H]3O[C@H](CN)[C@@H](O)[C@H](O)[C@H]3N)O[C@@H]2CO)[C@H](N)[C@@H](O)[C@@H]1O — melting temperature change (T2, RNA aptamer; UV melting; 1 µM RNA, 10 µM molecule, pH 6.8, NaCl 100 mM): 11.1 °C
O=C1C=CC(=O)N1c1ccccc1 — ATP-evoked current (P2X purinoceptor 4 (P2rx4, Rattus norvegicus, UniProt P51577, I252C); covalent modifier, patch clamp; 0.5 mM, 2 min): no effect
CCCCCCCC/C=C\CCCCCCCC(=O)O[C@@H]1C=CCO[C@@H]1COP(=O)(O)S (stereo partly drawn) — Emax (Lysophosphatidic acid receptor 6 (Homo sapiens, UniProt P43657); agonist, TGFα shedding): 32%

A few entries again:
CC(=O)NCCN(CC(=O)NCCN(CC(=O)NCCN(CC(=O)NCCC(N)=O)C(=O)C[C@@H](N)Cc1ccccc1)C(=O)C[C@@H](N)CCCNC(=N)N)C(=O)C[C@@H](N)CCCNC(=N)N — non-electrostatic TΔS° (HIV-1 TAR RNA): -1.82 ± 0.55 kcal/mol
CCCCCCCCC(=O)Nc1ccc(OC)nc1C — specific activity ratio (Liver carboxylesterase 1 (CES1, Homo sapiens, UniProt P23141); enzyme activity, substrate; relative to: CES1 over human CES2): 11
